Results from different studies.
Each line is one published result; not all experiments were run side by side.
Target: Alpha-2A adrenergic receptor (ADRA2A, Homo sapiens, UniProt P08913)
Chain of UniProt P08913 (whole entry, looked up): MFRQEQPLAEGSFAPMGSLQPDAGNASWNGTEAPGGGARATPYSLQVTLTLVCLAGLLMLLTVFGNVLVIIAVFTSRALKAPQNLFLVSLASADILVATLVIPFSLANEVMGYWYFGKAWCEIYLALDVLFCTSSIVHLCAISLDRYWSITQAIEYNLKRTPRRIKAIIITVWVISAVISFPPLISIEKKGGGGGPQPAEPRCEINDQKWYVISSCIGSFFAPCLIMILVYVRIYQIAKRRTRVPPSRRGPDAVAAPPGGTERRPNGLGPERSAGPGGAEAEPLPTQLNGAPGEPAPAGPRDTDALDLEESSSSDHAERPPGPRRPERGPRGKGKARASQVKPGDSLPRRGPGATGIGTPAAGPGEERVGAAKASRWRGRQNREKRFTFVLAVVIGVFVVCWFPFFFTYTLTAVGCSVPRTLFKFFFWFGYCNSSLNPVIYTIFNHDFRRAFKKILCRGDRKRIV

Compound | effect on | mode | technique | tested at | inhibition [%]
COc1ncc2nc(C)n(Cc3ncc(S(N)(=O)=O)cc3F)c2c1-c1ccccc1 | – | antagonist | cell-based | 10 µM | -3.13
Cc1[nH]nc2c1N=C(c1ccccc1Cl)c1cnc(N3CCOCC3)cc1N2 | cell-free assay | – | – | 10 µM | 5
Cn1ccc2cc(-n3c(=O)[nH]c4sc5c(c4c3=O)CCCC5)ccc21 | cell-free assay | – | radioligand | 10 µM | 12
COc1ccc(C(=O)Nc2c(-c3cccs3)nc3ccccn23)cc1 | ligand displacement | – | radioligand | 10 µM | < 50
O=C1c2sc(-c3ccc(N4CCC(CO)CC4)nc3F)nc2CCN1c1cccnc1 | ligand displacement | – | radioligand | 1 µM | 2
CC(C)Cn1c(SCC(=O)N2CCc3ccccc3C2)nc2cc(Cl)ccc2c1=O | ligand displacement | – | radioligand | 10 µM | 8
COc1ccc(C#CC2=C[C@H]3C[C@@]4(OC(=O)C=C24)[C@H]2CC[C@H](C(OC)OC)N32)cc1 | ligand displacement | – | radioligand | 10 µM | 35
COCC(=O)N1CCc2cc(-c3csc(NC(=O)c4cc(OC)cc(OC)c4)n3)ccc21 | cell-free assay | – | – | 10 µM | 2

Repeated from above:
Compound | effect on | mode | technique | tested at | inhibition [%]
Cn1ccc2cc(-n3c(=O)[nH]c4sc5c(c4c3=O)CCCC5)ccc21 | cell-free assay | – | radioligand | 10 µM | 12
